Measured values pooled from the literature.
Numbered parts are unrelated; each lists some results of a single study.

Series 1
Target: Histone acetyltransferase KAT6A, winged helix 1, GST fusion (KAT6A, Homo sapiens, UniProt Q92794, residues 1-85)
Technique: protein binding microarray
Form: double-stranded DNA, one strand shown
Matrix: in vitro
Concentration: not given
Notes: 8-mer, flanks averaged, mean of 2 arrays, mostly near background
Reference: not given
Direction: higher = stronger binding
Residues (chain): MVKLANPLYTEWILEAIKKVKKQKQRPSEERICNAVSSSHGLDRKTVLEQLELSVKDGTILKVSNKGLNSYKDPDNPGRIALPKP
| Strand | E-score |
| --- | --- |
| AGTAGGAA | -0.229 |
| CAGAGCCG | 0.235 |
| CTCCCCTA | -0.1 |
| CAGTTGAA | -0.227 |
| ACGTCAGC | 0.0683 |
| CGGAGGGA | -0.0305 |
| ATACGTGG | -0.0971 |
| GGAGTAAC | 0.0938 |
| CGCCACAA | 0.0922 |
| AAGAGGTC | -0.0821 |
| CCTTCGGA | 0.055 |
| CGCGCAGA | 0.305 |
| ATGCGTAG | 0.192 |
| TACGCAGA | 0.00195 |
| CCTATATA | -0.134 |
| GCAGTTAA | 0.0301 |
| AGGGGAAG | -0.208 |
| TCGCTCCA | -0.00448 |
| CCGCAAGG | 0.188 |
| GCCTAATA | 0.0535 |
| ACTTTGGC | -0.053 |
| TCGATGAA | -0.124 |
| ATAAGTCC | -0.149 |
| ATCGTTTA | -0.032 |
| CCACCGAG | -0.0165 |

Series 2
Target: Fragile X messenger ribonucleoprotein 1, C-terminal low-complexity region (Fmr1, Mus musculus, UniProt P35922)
Technique: RNA Bind-n-Seq
Form: RNA
Matrix: in vitro
Concentration: 200 nM
Notes: whole 134-nt RNA, ends assumed
Together with: 150 mM KCl
Reference: input library
Direction: higher = stronger binding
| Strand | log2 enrichment |
| --- | --- |
| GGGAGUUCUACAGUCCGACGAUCAGUCCUGUGCUACACAUCGUAUGUACCGAAUCGGAAAAAGGUUUUUUUGGUUUUUGGAAAGUAUUAUGUUACGCCGUUCGGAUCUGCACUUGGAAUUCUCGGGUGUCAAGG | -1.55 |
| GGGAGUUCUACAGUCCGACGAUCAGUCCUGUGCUACACAUCGUAUGUACCGAAUCGGGGCCCGGGGCCCGGGGCCCGGGGAAAGUAUUAUGUUACGCCGUUCGGAUCUGCACUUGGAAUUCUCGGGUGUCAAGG | -0.973 |
| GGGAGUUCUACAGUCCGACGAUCCCUCAAGUCCUGUGCUACACAUCGUAUGUACCGAAUCGGAGGGGAGGGGAGGAAAGUAUUAUGUUACGCCGUUCGGAUCUGCACUUCCAGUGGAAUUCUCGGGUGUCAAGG | 0.444 |
| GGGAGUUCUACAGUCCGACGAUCCUGUGCUACACAUCGUAUGUACCGAAUCAAAUUUUUUUAAACCCCCCCAAACCCCCCCAAAAAAGUAUUAUGUUACGCCGUUCGGAUCUGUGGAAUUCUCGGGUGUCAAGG | -0.683 |
| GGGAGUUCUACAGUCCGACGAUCUCCUGUGCUACACAUCGUAUGUACCGAAUCGGGGAAAGGGGUUUUUGGGGUUUUUGGGGAAAGUAUUAUGUUACGCCGUUCGGAUCUGCAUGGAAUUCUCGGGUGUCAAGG | 0.864 |
| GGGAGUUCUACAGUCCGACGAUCCAAGUCCUGUGCUACACAUCGUAUGUACCGAAUCGGUUUUUUUGGAGGUUUUUGGAAAGUAUUAUGUUACGCCGUUCGGAUCUGCACUUCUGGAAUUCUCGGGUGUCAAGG | -0.489 |
| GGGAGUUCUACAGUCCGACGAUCCUUAUGCCUUCCCCACUGGUAUUGAGGGUUUUGAUAAUAAAUUGGUAGGAAAAAAAAGUACCUCCUAGAAGGAAGCCUUCCCCACCAUUUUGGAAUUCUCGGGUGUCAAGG | -0.169 |
| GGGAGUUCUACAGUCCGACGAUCUGUGAGGUGGAUUUUGUUUAUUUUUUUAGCUCAUUUCCAGGGGUGGGAAUUUUUUUUUAAUAUGUGUCAUGAAUAAAGUUGUUUUUGAAAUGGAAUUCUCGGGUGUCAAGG | 0.0958 |
| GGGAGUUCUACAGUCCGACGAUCCUCAAGUCCUGUGCUACACAUCGUAUGUACCGAAUCGGGGCCGGCCGGCCGGGGAAAGUAUUAUGUUACGCCGUUCGGAUCUGCACUUCCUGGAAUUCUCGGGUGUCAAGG | 0.0977 |

Series 3
Target: RNA binding protein fox-1 homolog 2, RRM domain, GST-SBP tag (RBFOX2, Homo sapiens, UniProt O43251-10, residues 100-194)
Technique: RNA Bind-n-Seq
Form: RNA
Matrix: in vitro
Concentration: 365 nM
Notes: natural RNA segment, single round, ends assumed
Reference: no-protein control
Direction: higher = stronger binding
Construct (chain): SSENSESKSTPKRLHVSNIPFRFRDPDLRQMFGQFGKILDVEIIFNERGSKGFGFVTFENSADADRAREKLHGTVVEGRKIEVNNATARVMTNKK
| Strand | RBNS enrichment (R) |
| --- | --- |
| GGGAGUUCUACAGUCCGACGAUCAAGGUAGACUCUUCCCUAGGACUGACGAGUUACGGCUGCCAGAUGCCUGCAUGGGAAGAGGUGGACAUCUGCAUCUUCCAUUGGUGGUCAAGGAUGGGUGUGGGAGAACCUGGAAUUCUCGGGUGCCAA | 1.12 |
| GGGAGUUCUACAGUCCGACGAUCAUUCUGUAUAUAUUGCCCUGAACUUUCUGUGAUCACAGAUUAAAAAUAUCUUUUGGUUCCAAAUAGAAAGACAAUUCUUUAUUGUCUGACUGUAAUACAGCCUUCAUUGUUGGAAUUCUCGGGUGCCAA | 0.452 |
| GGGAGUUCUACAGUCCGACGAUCCAGUGUGUGUCUGCUGGUCAUGUGCUGGUGCCAGUUGGGGAGGAAUCAGCUGUCUCGGUGGAUUCUGAGACUCACUGUGGGGCGGGAAGAAGGGUCUUCACUCUGCCAUUUGGAAUUCUCGGGUGCCAA | 0.305 |
| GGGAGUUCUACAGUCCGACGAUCUGGGGGGAGAACAGAAGGGGGACGACGCCCCCGCACCUCCUGCGAUCUGGCUGGCUUGGAUCUCGUUUUUAACCCGUUCCUGCCCCACCUGCCCUAUAGUUAUGGCCUGUUGGAAUUCUCGGGUGCCAA | 0.226 |
| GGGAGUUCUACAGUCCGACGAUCUUGUCCUUGGGUCACCCUGCAUUCCAUAGCCAUGUGCUUGUCCCUGUGCUCCCACGGUUCCCAGGGGCCAGGCUGGGAGCCCACAGCCACCCCACUAUGCCGCAGGCCGCUGGAAUUCUCGGGUGCCAA | 0.289 |
| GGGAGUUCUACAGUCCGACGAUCCCUCCAGAGGGUGCGCUCAGAGACACGGGCAAGCAUGCCUCUUCCCUUCCCUGGAGAGAAAGUGUGUGAUUUCUCUCCCACCUCCUUCCCCCCACCAGACCUUUGCUGGGUGGAAUUCUCGGGUGCCAA | 1.66 |
| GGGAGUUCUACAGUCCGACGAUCCCCGCUGAGCUUCCCUUGGACACUAACUCUUCCCAGAUGAUGACAAUGAAAUUAGUGCCUGUUUUCUUGCAAAUUUAGCACUUGGAACAUUUAAAGAAAGGUCUAUGCUGUGGAAUUCUCGGGUGCCAA | 0.444 |
| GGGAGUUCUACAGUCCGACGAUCUCAGCAUGUUUCUCUCCUUGGACCUUGGGUUUCCAACUCUGCAGCCUUCAGGUCUGGGGCCAGGAGUGGGACCCACCAUUUGUGGGGAAAGUAGCAUUCCUCCACCUCAGUGGAAUUCUCGGGUGCCAA | 4.74 |

Series 4
Target: Interferon regulatory factor 3, full length, phosphomimetic (IRF3, Homo sapiens, UniProt Q14653, residues 1-427, S386D/S396D/S398D/S402D/T404D/S405D)
Chain of UniProt Q14653 (whole entry, unmodified, looked up): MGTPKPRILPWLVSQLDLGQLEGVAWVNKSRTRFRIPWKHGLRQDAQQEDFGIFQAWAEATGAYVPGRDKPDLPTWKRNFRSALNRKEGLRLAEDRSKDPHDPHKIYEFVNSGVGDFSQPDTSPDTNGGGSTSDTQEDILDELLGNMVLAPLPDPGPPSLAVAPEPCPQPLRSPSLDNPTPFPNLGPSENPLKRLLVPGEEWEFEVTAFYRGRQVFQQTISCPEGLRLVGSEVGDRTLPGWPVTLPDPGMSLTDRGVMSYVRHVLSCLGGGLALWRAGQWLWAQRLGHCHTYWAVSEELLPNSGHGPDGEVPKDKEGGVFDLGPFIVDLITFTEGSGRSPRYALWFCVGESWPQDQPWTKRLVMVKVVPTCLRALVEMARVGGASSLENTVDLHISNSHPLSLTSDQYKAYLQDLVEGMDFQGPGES
Technique: protein-binding microarray
Form: double-stranded DNA, one strand shown
Matrix: in vitro
Concentration: 2540 nM top
Notes: 60-bp whole probe
Together with: salmon DNA 0.4 mg/ml
Reference: random background probes
Direction: higher = stronger binding
All sequences stand within: GCCTAGCAC … GTCTTGATTCGCTTGACGCTGCTG
| Strand | fitted relative affinity |
| --- | --- |
| TTAGGACTGGGACTGCGTTAGTGCTAG | -1.12 z-score |
| TTAGGTTTCGGTTTCGGTGAGTGCTAG | 10.9 z-score |
| CAGAAAATGGAAACTCGTATGGTGCTA | 1.93 z-score |
| GACGGTTTCGCGTTTCGGGACGTGCTA | 3.3 z-score |
| TTAGGTATCCTTATCCCTTAGTGCTAG | 5.41 z-score |
| TCATTTTTTTCTATATGACTGTGCTAG | 1.48 z-score |
| AACGGTATCCTTCTCCTGACGTGCTAG | 6.36 z-score |
| TTAGGTTTCGCTCTCGGTTAGTGCTAG | 6.85 z-score |
| GACCGTCTCCTTCTCCTGACGTGCTAG | 3.24 z-score |
| TACGGACTGGGTTTCGGGACGTGCTAG | 1.24 z-score |
| TTAGGTTCCCTTTTCCTTTAGTGCTAG | 7.76 z-score |
| GACGGACTGGGTATTGGGACGTGCTAG | -0.771 z-score |
| CTGTGTTTCCTTGTACGTCGGTGCTAG | 3.48 z-score |
| TCAAATTTAGAAAATGGAACTGTGCTA | 0.197 z-score |
| AAGGAAGGACCATCCAGAGAGTGCTAG | -0.432 z-score |
| TTTGCTTTCTTTTATGCTCTGTGCTAG | 2.72 z-score |
| TTAGGTCTCGGACTGGGCTAGTGCTAG | -0.466 z-score |
| TTAGGTATTGGACTGGGTTAGTGCTAG | -0.583 z-score |
| TCACTTTACTTTCTTTTACTGTGCTAG | 4.23 z-score |

Repeated from above (series 4):
| Strand | fitted relative affinity |
| --- | --- |
| AACGGTATCCTTCTCCTGACGTGCTAG | 6.36 z-score |
| TTAGGTTTCGGTTTCGGTGAGTGCTAG | 10.9 z-score |
| TCAAATTTAGAAAATGGAACTGTGCTA | 0.197 z-score |
| TTAGGTTTCGCTCTCGGTTAGTGCTAG | 6.85 z-score |
